Published values gathered from unrelated publications.
Every numbered part comes from another study and shows a few of its results, in no order. Substitutions count along the parent as printed.

Study 1
Target: CCND1, cyclin fold, Cln2 fusion (human)
Technique: yeast growth competition, sequencing
Sample: yeast
Notes: weak parent motif
Relative to: not given
Reading: higher = stronger binding
Quantity: normalised enrichment score
Parent: WEE1 docking peptide (human); HKTFRKLRLFDTP
Change = HKTFKKLRFFDTP [R5K L9F]; value = 0.0833
Change = HITFRKLRLFDTP [K2I]; value = 0.186
Change = HKTFRKLRFFDTP [L9F]; value = -0.204
Change = HKFFRKLRLFDTP [T3F]; value = 0.0579
Change = HQTFRKLRLFDTP [K2Q]; value = 0.173
Change = HKHFRKLRLFDTP [T3H]; value = 0.67
Change = HKTWRKLRLFDTP [F4W]; value = 0.975
Change = HKVFRKLRLFDTP [T3V]; value = 1.35
Change = HKTYRKLRLFDTP [F4Y]; value = -0.527
Change = HKTFRKLRLQDTP [F10Q]; value = -1.12
Change = HKTFRKLRNFDTP [L9N]; value = -0.244
Change = HKTFRKLRLFDRP [T12R]; value = 0.319
Change = HKTFRKLRKFDTP [L9K]; value = -0.228
Change = HKTFRKLRLFDCP [T12C]; value = -0.155
Change = HPTFRKLRLFDTP [K2P]; value = 0.208
Change = HKTFRKLSLFDTP [R8S]; value = 0.824
Change = HKTFRKLRLFDIP [T12I]; value = 0.549
Change = HKTCRKLRLFDTP [F4C]; value = 0.101
Change = HKTFRKLRLADTP [F10A]; value = -0.28
Change = HKTFRKLRTFDTP [L9T]; value = -0.585
Change = HKTFRKIRLFDTP [L7I]; value = 0.4

Study 2
Target: Interferon regulatory factor 5, full length, phosphomimetic (IRF5, Homo sapiens, UniProt Q13568-2, residues 1-514, S451D/S453D/S456D/S462D)
Technique: protein-binding microarray
Molecule type: double-stranded DNA, one strand shown
Sample: in vitro
Concentration: 940 nM top
Notes: 60-bp whole probe
Together with: salmon DNA 0.4 mg/ml
Relative to: random background probes
Reading: higher = stronger binding
Quantity: fitted relative affinity
Shared flanks, not repeated: GCCTAGCAC … GTCTTGATTCGCTTGACGCTGCTG
Sequence = TTAGATTTCAGTTGCGATTAGTGCTAG; value = 1.53 z-score
Sequence = TTAGGTATCCTCTTCCTTTAGTGCTAG; value = 0.643 z-score
Sequence = GACGGACTGCTACTGATGACGTGCTAG; value = -0.406 z-score
Sequence = CTTTGACTCTTTCTGTCAGTGTGCTAG; value = 0.71 z-score
Sequence = TACTTTCTGAATGCTCCCCCTGTGCTA; value = 2.31 z-score
Sequence = TTAGGACTGGGGTATCGGTCAGTGCTA; value = 1.93 z-score
Sequence = TCCATTATTGCTTCCTCTTTGTGCTAG; value = 1.17 z-score
Sequence = TTAGAACTGAGACTTGATTAGTGCTAG; value = -0.103 z-score
Sequence = TTAGGACTGCTTCTCCTGTAGTGCTAG; value = -0.158 z-score
Sequence = TTAGGTATCCTTATCCATTAGTGCTAG; value = 0.444 z-score
Sequence = TTTTTTTTTTTTTTTTTGTAGTGCTAG; value = 0.998 z-score
Sequence = GACGGTTTCCTGTCCCTGACGTGCTAG; value = 0.902 z-score
Sequence = CAAGGAACTCAGAGATTTAAGTGCTAG; value = 0.0996 z-score

Study 3
Target: Sal-like protein 4, full length isoform B (SALL4, Homo sapiens, UniProt Q9UJQ4-2, residues 1-616)
Technique: universal PBM
Molecule type: double-stranded DNA, one strand shown
Sample: in vitro
Concentration: not given
Notes: 8-mer, flanks averaged, mean of replicates
Reading: higher = stronger binding
Quantity: E-score
Sequence = CTGGCGCC; value = -0.347
Sequence = AGGTCGAC; value = -0.0887
Sequence = CGGGCCCC; value = -0.422
Sequence = AACGTAAG; value = -0.0191
Sequence = AGGACCCA; value = -0.271
Sequence = CAACAGCG; value = -0.324
Sequence = GGCCTGTA; value = -0.237
Sequence = ATTGACTA; value = 0.0541
Sequence = ACACCTTC; value = 0.00655
Sequence = ACCCCGCA; value = -0.179
Sequence = AAGCGCGA; value = -0.118
Sequence = GCTTTTCC; value = -0.0429
Sequence = CTTCTGAC; value = 0.0636
Sequence = AAAGGGTT; value = -0.0493
Sequence = AGCTTATA; value = 0.298
Sequence = ATGGCCCC; value = -0.324
Sequence = ACCTGGGG; value = -0.37
Sequence = CGTGCCGA; value = -0.232
Sequence = GCATTGGC; value = -0.0746
Sequence = CCAGTGGA; value = -0.348
Sequence = ACGGTAAC; value = 0.0402
Sequence = ACCCGGTA; value = -0.136
Sequence = TCCCCCCA; value = -0.1
Sequence = GGTATGGA; value = -0.0354

Study 4
Target: ABI1, truncated, D143A, DHFR fusion (Arabidopsis thaliana)
Technique: DHFR PCA, deep sequencing
Sample: yeast
Notes: methotrexate growth selection, single substitutions
Together with: (+)-ABA 58 µM
Relative to: wild-type fitted maximum
Reading: higher = stronger binding
Quantity: relative binding score
Parent: PYL1, truncated, DHFR fusion (Arabidopsis thaliana); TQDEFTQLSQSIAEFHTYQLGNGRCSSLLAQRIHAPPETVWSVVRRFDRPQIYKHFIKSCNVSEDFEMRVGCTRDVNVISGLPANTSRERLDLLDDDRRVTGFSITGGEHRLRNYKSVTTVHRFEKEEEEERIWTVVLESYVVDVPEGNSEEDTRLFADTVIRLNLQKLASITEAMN; partner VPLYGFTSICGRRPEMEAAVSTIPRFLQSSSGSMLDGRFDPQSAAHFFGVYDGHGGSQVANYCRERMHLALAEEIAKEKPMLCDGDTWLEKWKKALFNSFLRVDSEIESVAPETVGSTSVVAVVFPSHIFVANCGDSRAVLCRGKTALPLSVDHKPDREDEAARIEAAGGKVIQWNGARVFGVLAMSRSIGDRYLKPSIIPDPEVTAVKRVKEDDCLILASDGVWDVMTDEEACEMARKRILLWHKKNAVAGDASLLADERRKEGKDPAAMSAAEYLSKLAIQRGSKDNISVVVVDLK
Change = V44K; value = 1.54%
Change = K116S; value = 90.3%
Change = T135D; value = 5.29%
Change = T101E; value = -0.194%
Change = L28W; value = 61.4%
Change = K126G; value = 92%
Change = D153P; value = -0.255%
Change = E67R; value = 79.6%
Change = L94C; value = 61.1%
Change = D159R; value = 11.5%
Change = H122S; value = 46.8%
Change = F66P; value = 62.9%
Change = E125R; value = 91.6%
Change = N149T; value = 59.6%
Change = R32M; value = 81.5%

Study 5
Target: Prothrombin, mature alpha-thrombin (F2, Homo sapiens, UniProt P00734)
Technique: aptamer microarray, sandwich
Molecule type: DNA with 2'F-ANA
Sample: in vitro
Concentration: 200 nM
Notes: whole 15-mer aptamer, many near background
Together with: Cy3 exosite-II aptamer, 400 nM
Reading: higher = stronger binding
Quantity: mean fluorescence intensity
Sequence: GGTTGGTGTGGTTGG
Modification = 2'F-ANA at 2 4 6 8 10 11 12; value = 180 a.u.
Modification = 2'F-ANA at 1 3 8 9 10 12 13; value = 116 a.u.
Modification = 2'F-ANA at 1 2 5 8 11 14; value = 52.9 a.u.
Modification = 2'F-ANA at 1 2 4 6 7 9 10; value = 49.3 a.u.
Modification = 2'F-ANA at 1 2 3 4 7 8 9 10 11 14; value = 53 a.u.
Modification = 2'F-ANA at 1 2 7 9 10 11 13; value = 51.8 a.u.
Modification = 2'F-ANA at 1 3 5 8 9 10 14; value = 47.9 a.u.
Modification = 2'F-ANA at 1 2 5 6 7 11 12; value = 85.5 a.u.
Modification = 2'F-ANA at 1 3 5 10; value = 43.4 a.u.
Modification = 2'F-ANA at 4 5 8 9 10 14 15; value = 45.1 a.u.
Modification = 2'F-ANA at 1 2 4 5 6 7 8 10 14; value = 45.1 a.u.
Modification = 2'F-ANA at 1 2 4 7 8 9 12 14; value = 61.6 a.u.
Modification = 2'F-ANA at 1 3 4 5 9 10 11 12 13 15; value = 52.8 a.u.
Modification = 2'F-ANA at 1 2 6 8 10 11 13 14 15; value = 53.5 a.u.
Modification = 2'F-ANA at 7 8 10 14 15; value = 135 a.u.
Modification = 2'F-ANA at 1 5 7 9 11 15; value = 54.6 a.u.
Modification = 2'F-ANA at 1 6 12 14 15; value = 70.5 a.u.
Modification = 2'F-ANA at 3 4 5 6 8 13; value = 64.6 a.u.

Study 6
Partner: ARF9 519-638 (Arabidopsis thaliana, UniProt Q9XED8)
Technique: two-hybrid
Notes: weak activation fusion
Relative to: out of 4 tests
Reading: higher = firmer interaction
Quantity: positive tests
B1: IAA33 (Arabidopsis thaliana, UniProt Q9FKM7); chain MNSFEPQSQDSLQRRFHQDNSTTQQPRDTTTPFIPKPASKNHNNSNSSSGAAGRSFQGFGLNVEDDLVSSVVPPVTVVLEGRSICQRISLDKHGSYQSLASALRQMFVDGADSTDDLDLSNAIPGHLIAYEDMENDLLLAGDLTWKDFVRVAKRIRILPVKGNTRQVKRNE
B2: IAA32 (Arabidopsis thaliana, UniProt Q8RYC6); chain MDPNTPADFFKGSSKFHTYYSQTKKGGGVIDLGLSLRTIQHETYLPPARMIGLDGYGELIDWSQPSYNSITQLKSEDTGHQRLAQGYYNNEGESRGKYAYVKVNLDGLVVGRKVCLVDQGAYATLALQLNDMFGMQTVSGLRLFQTESEFSLVYRDREGIWRNVGDVPWKEFVESVDRMRIARRNDALLPF
B3: ARF7 1030-1164 (Arabidopsis thaliana, UniProt P93022); chain PAQTQRMRTYTKVQKRGSVGRSIDVNRYRGYDELRHDLARMFGIEGQLEDPQTSDWKLVYVDHENDILLVGDDPWEEFVNCVQSIKILSSAEVQQMSLDGNFAGVPVTNQACSGGDSGNAWRGHYDDNSATSFNR
B4: ARF8 699-811 (Arabidopsis thaliana, UniProt Q9FGV1); chain NSSNQTKNFVKVYKSGSVGRSLDISRFSSYHELREELGKMFAIEGLLEDPLRSGWQLVFVDKENDILLLGDDPWESFVNNVWYIKILSPEDVHQMGDHGEGSGGLFPQNPTHL
Residues (chain): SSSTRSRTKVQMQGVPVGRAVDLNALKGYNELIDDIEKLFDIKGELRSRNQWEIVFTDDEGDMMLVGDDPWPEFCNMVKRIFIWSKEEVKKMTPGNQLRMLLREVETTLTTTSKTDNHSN
Molecule = B1 (IAA33); value = 0
Molecule = B2 (IAA32); value = 3
Molecule = B3 (ARF7 1030-1164); value = 1
Molecule = B4 (ARF8 699-811); value = 1

Study 7
Target: Histone acetyltransferase KAT6A, both winged helices, GST fusion (KAT6A, Homo sapiens, UniProt Q92794, residues 1-181)
Technique: protein binding microarray
Molecule type: double-stranded DNA, one strand shown
Sample: in vitro
Concentration: not given
Notes: 8-mer, flanks averaged, mean of 2 arrays, mostly near background
Relative to: not given
Reading: higher = stronger binding
Quantity: E-score
Residues (chain): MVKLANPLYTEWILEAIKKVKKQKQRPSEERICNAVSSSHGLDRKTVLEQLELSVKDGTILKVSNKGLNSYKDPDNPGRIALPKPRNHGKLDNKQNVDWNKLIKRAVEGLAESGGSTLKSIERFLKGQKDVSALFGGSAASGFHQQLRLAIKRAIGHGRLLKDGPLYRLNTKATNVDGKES
Sequence = AAATCGTA; value = -0.0676
Sequence = GTACAGCA; value = 0.00133
Sequence = GTGCGTTA; value = 0.177
Sequence = ACACATGT; value = -0.002
Sequence = ATTGCCTC; value = -0.189
Sequence = ACATGCGG; value = 0.28
Sequence = TCAGGAAA; value = -0.0613
Sequence = GGTCACCA; value = -0.0956
Sequence = TCCAGCAA; value = -0.271
Sequence = GGATTCAC; value = -0.0508
Sequence = AGGGTATG; value = -0.201
Sequence = CGTTTGTA; value = 0.0219
Sequence = CAGGAGAG; value = -0.269
Sequence = ACTAGGCT; value = -0.176
Sequence = GTGCTGCA; value = 0.00483
Sequence = ACCTCGAC; value = -0.0885
Sequence = ATTTATAA; value = -0.0604
Sequence = GGTGGAAC; value = -0.105
Sequence = CCTCATCC; value = -0.122
Sequence = GGACTCAA; value = -0.0127
Sequence = CCCGTCGA; value = 0.256

A few entries again (study 5):
Modification = 2'F-ANA at 1 6 12 14 15; value = 70.5 a.u.
Modification = 2'F-ANA at 4 5 8 9 10 14 15; value = 45.1 a.u.
Modification = 2'F-ANA at 1 3 4 5 9 10 11 12 13 15; value = 52.8 a.u.
Modification = 2'F-ANA at 1 2 4 7 8 9 12 14; value = 61.6 a.u.
Modification = 2'F-ANA at 1 2 6 8 10 11 13 14 15; value = 53.5 a.u.
Modification = 2'F-ANA at 2 4 6 8 10 11 12; value = 180 a.u.
Modification = 2'F-ANA at 1 2 5 6 7 11 12; value = 85.5 a.u.
Modification = 2'F-ANA at 1 2 4 5 6 7 8 10 14; value = 45.1 a.u.
Modification = 2'F-ANA at 1 2 3 4 7 8 9 10 11 14; value = 53 a.u.
Modification = 2'F-ANA at 1 2 4 6 7 9 10; value = 49.3 a.u.
Modification = 2'F-ANA at 7 8 10 14 15; value = 135 a.u.
Modification = 2'F-ANA at 1 3 5 8 9 10 14; value = 47.9 a.u.
Modification = 2'F-ANA at 1 3 8 9 10 12 13; value = 116 a.u.
Modification = 2'F-ANA at 1 5 7 9 11 15; value = 54.6 a.u.
Modification = 2'F-ANA at 1 2 7 9 10 11 13; value = 51.8 a.u.
